Published values collected from several papers.
Every numbered part comes from another study and shows a few of its results, in no order. Positions count from the first letter of the parent shown.

Series 1 — technique: RNA Bind-n-Seq; molecule type: RNA; sample: in vitro; tested at: 200 nM; notes: whole 134-nt RNA, ends assumed; together with: 150 mM KCl; relative to: input library; reading: higher = stronger binding
Target: Ras GTPase-activating protein-binding protein 1, full length (G3BP1, Homo sapiens, UniProt Q13283)
UniProt Q13283, sequence (whole entry, looked up): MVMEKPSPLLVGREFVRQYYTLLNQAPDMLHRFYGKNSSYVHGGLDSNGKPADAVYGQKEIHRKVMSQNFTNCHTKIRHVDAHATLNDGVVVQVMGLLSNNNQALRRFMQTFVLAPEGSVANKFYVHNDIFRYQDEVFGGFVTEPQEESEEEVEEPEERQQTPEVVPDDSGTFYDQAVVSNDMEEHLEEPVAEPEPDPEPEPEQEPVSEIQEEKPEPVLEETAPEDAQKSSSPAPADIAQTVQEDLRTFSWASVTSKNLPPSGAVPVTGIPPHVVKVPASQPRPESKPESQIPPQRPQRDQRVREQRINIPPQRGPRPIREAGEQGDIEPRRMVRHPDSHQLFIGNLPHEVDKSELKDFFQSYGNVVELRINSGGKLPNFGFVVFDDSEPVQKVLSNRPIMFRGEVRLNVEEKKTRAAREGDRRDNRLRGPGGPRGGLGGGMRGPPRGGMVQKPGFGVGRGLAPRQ
Shared flanks, not repeated: GGGAGUUCUACAGUCCGACGAUC … UGGAAUUCUCGGGUGUCAAGG
Strand	log2 enrichment
GUCCUGUGCUACACAUCGUAUGUACCGAAUCGGGUUUUGGGGUUUUGGGGUUUUGGGGAAAGUAUUAUGUUACGCCGUUCGGAUCUGCAC	0.0338
CCUGUGCUACACAUCGUAUGUACCGAAUCGGGGAAAAAGGGGAAAAAGGGGAAAAAGGGGAAAGUAUUAUGUUACGCCGUUCGGAUCUGC	0.155
CUGUGCUACACAUCGUAUGUACCGAAUCGGGGUUUUUUGGGGUUUUUUGGGGUUUUUUGGGGAAAGUAUUAUGUUACGCCGUUCGGAUCU	-0.41
CUCAAGUCCUGUGCUACACAUCGUAUGUACCGAAUCGGGGCGGGGCGGGCGGGGAAAGUAUUAUGUUACGCCGUUCGGAUCUGCACUUCC	1.39
UGAGAGGUGGAUUUUGUUUAUUUUUUUAGCUCAUUUCCAGGGGUGGGAAUUUUUUUUUAAUAUGUGUCAUGAAUAAAGUUGUUUUUGAAA	-0.0682
AGUCCUGUGCUACACAUCGUAUGUACCGAAUCGGGUUUUUGGGAAAAAGGGUUUGGGAAAGUAUUAUGUUACGCCGUUCGGAUCUGCACU	-0.368
AACAGACAACACGCACCCACACAGACACAGAGGGAAGGGGUUGGGAUGGGGACAGGGUGCACAGCAGGGCGGGGUAGGACCCCAGCCCCU	1.74
ACCAUGCAGGUGGGCAUCUUUGGGAAGUGGGGCAAUGGGGGGAUAGGGAGGGGGGUAACACUUUGGGAACAGGUGGUCCCAGGUCGUUUC	1
CUGUGCUACACAUCGUAUGUACCGAAUCGGCCCCCCCGGGGCCCCCCCGGGGCCCCCCCGGGAAAGUAUUAUGUUACGCCGUUCGGAUCU	-1.84

Series 2 — technique: DHFR PCA, deep sequencing; sample: yeast; together with: (+)-ABA 710 µM; relative to: wild-type fitted maximum; reading: higher = stronger binding
Target: ABI1, truncated, D143A, DHFR fusion (Arabidopsis thaliana)
Notes: methotrexate growth selection, single substitutions
Parent: PYL1, truncated, DHFR fusion (Arabidopsis thaliana); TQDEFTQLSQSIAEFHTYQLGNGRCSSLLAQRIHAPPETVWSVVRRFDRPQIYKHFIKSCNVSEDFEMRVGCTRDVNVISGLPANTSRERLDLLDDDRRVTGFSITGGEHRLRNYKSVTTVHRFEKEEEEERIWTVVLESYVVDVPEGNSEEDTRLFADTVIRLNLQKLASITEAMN
Substitution	relative binding score
D95F	88.1%
L8N	71.7%
S27N	103%
R49Y	88.3%
D96L	67.4%
V44G	1.29%
V121L	102%
S63M	105%
Q7A	105%
F103P	-21.4%

Series 3 — technique: protein binding microarray; molecule type: double-stranded DNA, one strand shown; sample: in vitro; tested at: not given; relative to: not given; reading: higher = stronger binding
Target: Histone acetyltransferase KAT6A, winged helix 1, GST fusion (KAT6A, Homo sapiens, UniProt Q92794, residues 1-85)
Notes: 8-mer, flanks averaged, mean of 2 arrays, mostly near background
Construct (chain): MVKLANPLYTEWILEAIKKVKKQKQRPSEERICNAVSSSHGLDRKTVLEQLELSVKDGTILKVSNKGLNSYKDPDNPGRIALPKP
Strand	E-score
ATGCAGTA	-0.0948
AGGGTGAG	-0.0861
AATATCTC	-0.08
CCACGTAA	-0.121
ACTGCTTC	0.0693
AGCTGTTA	-0.121
CTCAGTAC	-0.124
GTCCTAAA	-0.0362
ATCGGTTC	0.123
CACATCAC	-0.123
CCACCTTA	-0.216
CTGGGCCA	-0.168
AAACCACT	-0.00834
GTAATGAA	-0.00458
AGACCCAC	-0.136
GATAAAAA	-0.095
CGGACAAA	0.12
AAGGAAAC	-0.177
ATCTATCA	-0.0757
CTGCACGC	0.237
CTAAGGAG	-0.31
ACGGTGAT	0.0746

Series 4 — technique: protein-binding microarray; molecule type: double-stranded DNA, one strand shown; sample: in vitro; tested at: 2200 nM top; notes: 60-bp whole probe; together with: salmon DNA 0.4 mg/ml; relative to: random background probes; reading: higher = stronger binding; shared flanks, not repeated: GCCTAGCAC … GTCTTGATTCGCTTGACGCTGCTG
Target: Interferon regulatory factor 7, full length, phosphomimetic (IRF7, Homo sapiens, UniProt Q92985, residues 1-503, S471D/S472D/S475D/S476D/S477D/S483D/S484D/S487D)
UniProt Q92985, sequence (whole entry, unmodified, looked up): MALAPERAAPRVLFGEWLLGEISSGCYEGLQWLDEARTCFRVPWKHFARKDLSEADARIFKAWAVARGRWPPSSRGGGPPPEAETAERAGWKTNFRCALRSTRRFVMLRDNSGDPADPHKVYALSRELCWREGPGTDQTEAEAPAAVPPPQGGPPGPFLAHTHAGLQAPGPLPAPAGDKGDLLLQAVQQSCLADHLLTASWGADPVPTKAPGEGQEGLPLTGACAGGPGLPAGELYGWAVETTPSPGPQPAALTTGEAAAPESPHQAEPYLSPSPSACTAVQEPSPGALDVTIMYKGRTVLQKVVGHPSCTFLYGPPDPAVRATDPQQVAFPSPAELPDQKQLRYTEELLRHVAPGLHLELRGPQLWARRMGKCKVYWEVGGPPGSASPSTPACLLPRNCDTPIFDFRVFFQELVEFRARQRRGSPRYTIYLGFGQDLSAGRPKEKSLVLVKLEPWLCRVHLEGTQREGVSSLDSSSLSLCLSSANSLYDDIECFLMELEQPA
Strand	fitted relative affinity [z-score]
GATGGACTGGGGTATCGGGACGTGCTA	-0.515
GACGGTTTCGGACTGGGGATGTGCTAG	3.6
TCAAGGCCAGGGTTTCTGTTGTGCTAG	-0.0593
TTTGATATCGGGTTTCGATTAGTGCTA	3.13
GACGAACTGGGATTTCGAGACGTGCTA	0.407
TTAGGTATCGGGCTTCGGTTAGTGCTA	0.139
TTAGATATCGGGTTTCGCTTAGTGCTA	2.62
GACCGTTTCGACTTTCGGGACGTGCTA	6.89
TCACATGTTGCTCTCCGACTGTGCTAG	1.85
GCCACTTTCCATTTCTGTTTGTGCTAG	10.7
AGTATGTTCACTATTTAAGAGTGCTAG	0.478
GACGGTATCGACTAACGGGACGTGCTA	-0.449
GACGGCTTCGGTCTCGGGACGTGCTAG	-0.22
GATGGTTTCGGGTATCGGGACGTGCTA	6.43

Series 5 — target: CCND2, cyclin fold, Cln2 fusion (human); technique: yeast growth competition, sequencing; sample: yeast; notes: weak parent motif; relative to: not given; reading: higher = stronger binding
Parent: GMNC docking peptide (human); KNAKRNLSSEFAN; partner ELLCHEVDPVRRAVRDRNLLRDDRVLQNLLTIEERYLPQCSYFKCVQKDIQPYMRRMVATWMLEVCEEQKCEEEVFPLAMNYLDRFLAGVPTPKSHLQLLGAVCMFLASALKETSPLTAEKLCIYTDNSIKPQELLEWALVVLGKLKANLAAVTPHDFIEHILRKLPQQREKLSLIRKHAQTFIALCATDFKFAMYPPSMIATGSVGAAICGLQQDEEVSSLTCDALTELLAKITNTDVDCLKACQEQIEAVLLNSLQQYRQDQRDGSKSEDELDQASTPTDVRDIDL
Substitution	normalised enrichment score
F11A	0.257
L7Y	-0.275
N2K	0.755
S9M	0.246
N6S	0.227
S9I	0.271
K4A	0.18
N2E	0.185
A12Y	0.233
R5W	0.307
N6D	-0.231
A12F	-0.0338
N6W	-0.315
E10A	0.13
N2H	0.216
N2Q	0.173
S9W	0.229
R5Y	0.0519
N6T	0.657

Series 6 — technique: EMSA with sequencing; molecule type: double-stranded DNA, one strand shown; sample: in vitro; tested at: 10 and 20 nM; relative to: negative control set to 0; reading: higher = stronger binding
Target: Hepatocyte nuclear factor 3-alpha (Foxa1, Mus musculus, UniProt P35582, residues 1-468, full length assumed)
Notes: whole designed probe, mean of two concentrations, ends assumed
Shared flanks, not repeated: GTGAGCGGTGCCCATTGATGGGGAAC … TTTCACTGGGATCGTGGGGAC
Target sequence (chain): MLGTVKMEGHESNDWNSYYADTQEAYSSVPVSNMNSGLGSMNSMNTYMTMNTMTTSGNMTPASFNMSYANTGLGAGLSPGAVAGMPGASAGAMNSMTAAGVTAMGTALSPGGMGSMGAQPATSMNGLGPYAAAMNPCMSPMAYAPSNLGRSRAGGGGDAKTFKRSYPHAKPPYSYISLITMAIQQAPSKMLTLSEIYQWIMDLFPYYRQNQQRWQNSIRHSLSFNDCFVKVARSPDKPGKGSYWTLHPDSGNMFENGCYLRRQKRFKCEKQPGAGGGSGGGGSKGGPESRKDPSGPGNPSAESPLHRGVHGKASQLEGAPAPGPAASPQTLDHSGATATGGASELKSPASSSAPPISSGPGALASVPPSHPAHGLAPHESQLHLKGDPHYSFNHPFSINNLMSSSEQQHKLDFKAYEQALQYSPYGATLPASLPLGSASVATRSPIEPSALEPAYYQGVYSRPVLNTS
Strand	normalised bound fraction [ratio]
ATCTTCCCCCTCTTCCTTGCCCCACCAGCTCACCTACGGGGGTTATTTGCAGATAGGAAAATAAATAAAGCCGGCATTCGTTAACCCTCTTCTGGCGCAAACTGCTGTTTGCTCTGGATCTAACATGGTCCTTTGGCGACGCCAGGCTCCGGGAGAGCAAAGCACCGTGTCAGGGCCATGATCCGGGCTCGCC	0.336
TAGTCCCTCTTTCAAAAAACTTGCTAGATGCAAAACGATAGATATGGATATGGACGTGGACACAGGCCTAGGTATAGACAGATACACTTAATGTAATCTTGCACGTATATACATTCAAGTACTGTTAGGTACTGGGGATCCAAAGGTGGCTTCTATTAACAACAGCAGCCCTTACTCACTGAACATATCCTGT	-0.0416
AGGCCTTATCACTGTGCAAACACTTCCTCTTTCCCCAGTGCTGGTTCTCACACAATTGGTAATCAGTGTAAACTTCCTCTGACAATTTACTGAGCAAACATTTACCATACAACTGCCCTATGTAGGGCTCTGTGCTAAGGCCCATGGGGAACCCAAGCCTGGTCTCCACCTTGGGGCATCTCGAGTCTGGTAG	0.415
AAATAAGGCGCGCGAGAGAGGCCAACACGTCGCGGAGGGAGATGTTGTTATTTTTTGCTGTTGTGCGTCCCTGACGTCACATCCACCTGCTGGGTAATCTACCGGGCTCCCAGAAAAAAAAAATCGCAATTGCCAAAGAATGGGGGGGGGGGTTGGGGGGAGGGATCCAGGGAGGGGGAAGTGAGGGGCGTCC	0.233
GTGTGTGCGCGCGCGTGTGTGTGTGTTTTCTTAAGCCGGGCTATTCAAACCCTGCTGCAATTCTCCGGTAAAGGGGCACAATGATTCATTAATGCAAATAAACGGATTGCAAACGGCGCGGTTCGCGCACTTTGCAGCCGGCCCGGTGGAGCAGCCAGTGCCGGATTTCTCCCTTTTTTTGCAGATCTGCAGA	0.396
ATCTTCCCCCTCTTCCTTGCCCCACCAGCTCACCTTCCCGGGTTATTTGCAGATAGGAAAATAAATAAAGCCGGCATTCGTTAACGCAGTTCTGGCGCAAACTGCTGTTTGCTCTGGATCTAACATGGTCCTTTGGCGAGGCGTGGCTCCGGGAGAGCAAAGCACCGTGTCAGGGCCATGATCCGGGCTCGCC	0.347
GGCTGTTTAGGTAGCTGGCAGGAAGTAGTATGTGTCTCCAGAGCATAAAATTGGCCGCAAAGTAGGTAGGGCCTATGAAAATACTGATGTAATGTAATCTTTGTATTTCTAAACTATTTACAAGGTCATCCCTACCCTACATGAGAGGTCAGCTCTACCACTAAGAGGTCCCACATGGACTTCTACAATATTC	0.0151
TTTAGTACTTTAAAATTTTCCAAAGTGCTTTTCCTTGTCTTATTATAACAATTGCCAGCATTTGGTCAGCACTCTAGAGGTTATAAAGTACTTAGAGTACACTGTCTCCTATGACATCACAGCAATGCTGTGGGTTATTATTACTTGACTCATTTTGCAGGCAAGGAAGCTAAGGTTCAGGAATGCTAAATGA	-0.0216

Series 7 — technique: universal PBM; molecule type: double-stranded DNA, one strand shown; sample: in vitro; tested at: 600 nM; reading: higher = stronger binding
Target: Sal-like protein 4, full length isoform A (SALL4, Homo sapiens, UniProt Q9UJQ4, residues 1-1053)
UniProt Q9UJQ4, sequence (whole entry, looked up): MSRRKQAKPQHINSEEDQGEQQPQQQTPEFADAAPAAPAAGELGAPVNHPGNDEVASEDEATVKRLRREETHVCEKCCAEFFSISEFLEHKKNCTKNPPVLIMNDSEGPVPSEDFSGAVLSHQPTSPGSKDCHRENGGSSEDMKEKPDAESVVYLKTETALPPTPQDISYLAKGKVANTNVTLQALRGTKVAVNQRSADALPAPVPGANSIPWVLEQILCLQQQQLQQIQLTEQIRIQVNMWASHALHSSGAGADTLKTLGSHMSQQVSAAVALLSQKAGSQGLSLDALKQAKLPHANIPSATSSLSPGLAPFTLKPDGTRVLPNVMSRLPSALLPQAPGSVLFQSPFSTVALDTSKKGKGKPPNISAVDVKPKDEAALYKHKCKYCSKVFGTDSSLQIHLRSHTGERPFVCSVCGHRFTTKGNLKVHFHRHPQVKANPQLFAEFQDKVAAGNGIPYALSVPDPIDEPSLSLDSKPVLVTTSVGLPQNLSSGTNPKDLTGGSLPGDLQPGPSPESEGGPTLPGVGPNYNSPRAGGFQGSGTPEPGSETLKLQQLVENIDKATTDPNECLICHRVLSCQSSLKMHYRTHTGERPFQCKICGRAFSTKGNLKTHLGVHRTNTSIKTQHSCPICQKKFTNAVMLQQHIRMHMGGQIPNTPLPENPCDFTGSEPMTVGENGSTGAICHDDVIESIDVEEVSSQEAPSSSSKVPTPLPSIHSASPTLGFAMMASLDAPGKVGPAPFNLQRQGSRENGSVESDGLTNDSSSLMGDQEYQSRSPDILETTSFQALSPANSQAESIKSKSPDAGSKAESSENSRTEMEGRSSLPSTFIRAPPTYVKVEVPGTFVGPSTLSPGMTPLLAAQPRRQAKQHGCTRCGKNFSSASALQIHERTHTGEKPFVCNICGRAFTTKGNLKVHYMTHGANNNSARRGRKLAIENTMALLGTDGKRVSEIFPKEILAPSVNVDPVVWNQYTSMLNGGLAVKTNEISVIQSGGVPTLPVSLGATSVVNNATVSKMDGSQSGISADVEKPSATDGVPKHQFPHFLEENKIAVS
Notes: 8-mer, flanks averaged, mean of replicates
Strand	E-score
CAAACGGC	-0.312
TGCCGGCA	-0.0894
GCGCTCGA	-0.141
CCACTCTA	0.0767
CTCGGGCA	-0.242
ATCAGCAT	0.126
ACTGGGAG	-0.289
AAACGTTG	-0.101
ATCGGCTA	0.0481
CGCCCCAG	-0.326
CCGCTTGC	-0.19
AACGCGCG	-0.138
CTCCATAC	-0.0765
GCTGGCAA	-0.121
CAGGACGG	-0.182
GTACAGTA	0.208
ATCCCAGG	-0.162

Series 8 — technique: RNAcompete; molecule type: RNA; sample: in vitro; tested at: 20 nM; notes: 7-mer, probes averaged, single round; relative to: mean of 7-mers; reading: higher = stronger binding
Target: PABPC1L2, full length, GST fusion (mouse, UniProt A0ABA7IW68)
Construct (chain): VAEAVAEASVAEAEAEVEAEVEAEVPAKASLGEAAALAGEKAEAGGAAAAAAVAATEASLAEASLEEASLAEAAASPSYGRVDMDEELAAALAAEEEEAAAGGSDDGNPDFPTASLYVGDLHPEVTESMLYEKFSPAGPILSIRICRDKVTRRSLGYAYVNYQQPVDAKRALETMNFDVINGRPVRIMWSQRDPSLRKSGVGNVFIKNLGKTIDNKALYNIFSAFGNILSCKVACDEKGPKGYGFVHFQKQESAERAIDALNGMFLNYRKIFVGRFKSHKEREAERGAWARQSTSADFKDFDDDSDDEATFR
Strand	7-mer Z-score
AGCACGU	-0.197
ACUCAAG	-0.132
AGUGCUU	-0.202
UGGCACU	0.148
CGUGCAC	-0.322
GUCUCGA	-0.277
UUCCCAA	-0.148
ACAAAGC	0.606
GUCCGCU	-0.345
UUAAAUA	1.15
UUCCGCC	-0.427
CCACCUA	-0.403
GUCGCCU	-0.449
UGCGUAU	-0.306
CACAUGG	-0.106
CCCUGGC	-0.382
UUGAACG	-0.271
AUUUUCG	-0.335
AAUAACU	0.218
UGGGCUG	0.153

Further values, each from its own experiment — technique: cross-linking MS; notes: hits only
Molecule	partner	interaction screen
RPN1 (Homo sapiens, UniProt P04843)	PDIA5 (Homo sapiens, UniProt Q14554)	cross-linked
GAPDH (Homo sapiens, UniProt P04406)	HSPA1B (Homo sapiens, UniProt P0DMV9)	cross-linked
